Measured values collected from several papers.
Each numbered part is a random draw from the data of one study; scales do not carry over between parts.

Series 1 — technique: aptamer microarray, sandwich; molecule type: DNA with 2'F-ANA; matrix: in vitro; tested at: 200 nM; together with: Cy3 exosite-II aptamer, 400 nM; direction: higher = stronger binding; quantity: mean fluorescence intensity; strand: GGTTGGTGTGGTTGG
Target: Prothrombin, mature alpha-thrombin (F2, Homo sapiens, UniProt P00734)
Notes: whole 15-mer aptamer, many near background
2'F-ANA at 1 2 4 5 8 10 11 12 14: 49 a.u.
2'F-ANA at 1 2 3 4 11 12 14 15: 105 a.u.
2'F-ANA at 5 7 8 11 13 14 15: 47.9 a.u.
2'F-ANA at 4 5 6 7 8 9 11 13 14 15: 44.3 a.u.
2'F-ANA at 1 6 8 11 15: 193 a.u.
2'F-ANA at 1 2 3 6 8 10 11 13 14: 62.2 a.u.
2'F-ANA at 2 4 9 11: 264 a.u.
2'F-ANA at 4 5 6 7 8 11 13 14: 47.5 a.u.
2'F-ANA at 1 2 5 6 7 9 10 11 14 15: 51.1 a.u.
2'F-ANA at 1 4 6 14 15: 51.1 a.u.
2'F-ANA at 2 6 7 8 9 10 11 12 13 14: 85.8 a.u.
2'F-ANA at 5 7 11 13 15: 55.4 a.u.
2'F-ANA at 1 2 4 5 7 8 9 10 11 13: 62.1 a.u.
2'F-ANA at 1 5 7 8 9 11 12 15: 94 a.u.
2'F-ANA at 3 4 5 6 8 9 10 12 13 14 15: 49.4 a.u.
2'F-ANA at 2 5 6 7 9 11 12 14: 139 a.u.
2'F-ANA at 3 5 6 8 9 11 13 14 15: 54.7 a.u.
2'F-ANA at 1 3 4 5 6 9 10 14 15: 46.6 a.u.
2'F-ANA at 2 3 5 6 8 9 11 13: 71.3 a.u.
2'F-ANA at 2 3 4 5 9 10 12 13: 53.2 a.u.
2'F-ANA at 1 6 8 9 14 15: 57.1 a.u.
2'F-ANA at 1 3 4 6 9 12 13 14 15: 67.5 a.u.
2'F-ANA at 1 2 5 9 13 15: 48 a.u.
2'F-ANA at 1 11 13 14: 53.9 a.u.
2'F-ANA at 1 6 8 10 12 14: 44.8 a.u.

Series 2 — technique: protein binding microarray; molecule type: double-stranded DNA, one strand shown; matrix: in vitro; tested at: not given; reference: not given; direction: higher = stronger binding; quantity: E-score
Target: Histone acetyltransferase KAT6A, both winged helices, GST fusion (KAT6A, Homo sapiens, UniProt Q92794, residues 1-181)
Notes: 8-mer, flanks averaged, mean of 2 arrays, mostly near background
Residues (chain): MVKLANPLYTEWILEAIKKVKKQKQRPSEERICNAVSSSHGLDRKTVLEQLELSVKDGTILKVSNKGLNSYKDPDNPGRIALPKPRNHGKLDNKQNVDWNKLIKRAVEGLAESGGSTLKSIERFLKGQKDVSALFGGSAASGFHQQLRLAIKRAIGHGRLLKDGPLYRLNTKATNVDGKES
ATTGTAGG: -0.163
CGTGCGAC: 0.185
CTGACGCC: 0.0691
TCCACAAA: -0.11
CCTCTGCA: -0.167
CCCTAGGG: -0.178
ATCGACTG: -0.133
CCGCCTCG: 0.242
CCATCGGC: 0.0547
ACAAGCTA: -0.257
AACATCTA: -0.0914
ATTCTTGC: -0.0296
ATAATCAG: -0.0278
CGGGCAGC: 0.132
AAATGGCC: 0.0992
ACGCCCCG: 0.149
CGGGCCGC: 0.303
AGAAAGGA: -0.0801
AAATGAAA: -0.0312
ATAAGTAC: -0.0712
GCACTAAC: 0.0411
AGGCTGCC: -0.12
AACATCAG: -0.135
GCCGATGA: 0.181
AGGTAAGC: -0.144

Series 3 — technique: competition protein-binding microarray; molecule type: double-stranded DNA, one strand shown; matrix: in vitro; tested at: 2 µM; together with: Cbf1 competitor, 0.05 µM; direction: higher = stronger binding; quantity: fluorescence intensity; all sequences stand within: … GTCTTGATTCGCTTGACGCTGCTG
Target: Phosphate system positive regulatory protein PHO4, full length, GST-tagged (PHO4, Saccharomyces cerevisiae, UniProt P07270, residues 1-312)
Notes: whole 60-bp probe, lowest competitor level
Construct (chain): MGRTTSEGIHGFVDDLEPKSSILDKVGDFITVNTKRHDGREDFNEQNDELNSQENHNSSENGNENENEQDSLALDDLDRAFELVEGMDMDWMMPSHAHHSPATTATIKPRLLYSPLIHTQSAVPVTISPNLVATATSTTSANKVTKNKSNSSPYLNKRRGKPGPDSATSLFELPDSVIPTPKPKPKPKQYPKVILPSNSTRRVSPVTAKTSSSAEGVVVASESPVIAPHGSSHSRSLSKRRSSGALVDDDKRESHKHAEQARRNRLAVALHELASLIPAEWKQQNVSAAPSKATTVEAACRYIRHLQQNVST
AAATTACTAAGTTGTCACACGACTTACCCCGTATGA: 6420 a.u.
AGGTTACCGCCATCTCACCTGCAGCTTGGATCCTGA: 2720 a.u.
CGCTTGCCTTTAATCCTCGTGCCGATCCACAAAATC: 9550 a.u.
TGCGCAACAACTTGGATTGTGGGTGTATGTCTAGAA: 4750 a.u.
CTTCTGTAAATTTGAATCGTGGGTGGACGCGCCCCG: 8190 a.u.
CTTTCCCGATCTTGCTTTGTGGGTGTAGCACATTTG: 4580 a.u.
TCTTTGAAGGTGCGTCATGCTCACTGTTGAACTCTA: 5530 a.u.
AAAGCGGTAATTTGCTCGGTGGGTGCAGATATCTAT: 3890 a.u.
TAGCTAGGGAGCCCTTGCATGACAATTCTGCTAACA: 3610 a.u.
CGCCGTCCTGTAATCCATGTGGCAAGTCCACCGTAA: 6940 a.u.
AAAGCGGTAATTTGGACGGTGGGTGCAGATATCTAT: 4050 a.u.
CCAGCAGTGCCTGCCCACGTGAGCTAGGCGACATCC: 15400 a.u.
GAAACGTCGGGTAGTTTCGTGCCGACTTAAGTGCCT: 4620 a.u.
TCTATAATAACCTCCCATGTGAAAATACCAACCTCT: 6250 a.u.
CTTTCCCGATCTTGACGTGTGGGTGTAGCACATTTG: 7030 a.u.
AGGTTTACACAATCGCACGTGATGGTATATTTGCCA: 15700 a.u.
AAAGCGGTAATTTGCACGGTGGGTGCAGATATCTAT: 6990 a.u.
AAATTACTAAGTTAACACGTGTTTTACCCCGTATGA: 18600 a.u.
TGAAAAATCTGAGACAACGTGCCAGTTTGTAAGTGC: 15100 a.u.
GGATCAACAAAATGGGGCGTGATGGAGAAAAAAAGT: 9500 a.u.
TCACTCCTAGTTTTCCATGTGGCTTCAGCTCGAGGA: 7210 a.u.
AAAGCGGTAATTTGTGTTGTGGGTGCAGATATCTAT: 4360 a.u.
TACGAGCAAATTTTGCACGTATAGGGCGCCTATAAC: 4490 a.u.
TTGCTGTCCAGCAAAAACGTGATGGCCACTTCGGAC: 11500 a.u.
CGGGGTTAAGTTTGATTTGTGGGTGGCTTGCAGCAG: 3850 a.u.

Series 4 — technique: RNA Bind-n-Seq; molecule type: RNA; matrix: in vitro; tested at: 365 nM; reference: no-protein control; direction: higher = stronger binding; quantity: RBNS enrichment (R)
Target: RNA binding protein fox-1 homolog 2, RRM domain, GST-SBP tag (RBFOX2, Homo sapiens, UniProt O43251-10, residues 100-194)
Notes: natural RNA segment, single round, ends assumed
All sequences stand within: GGGAGUUCUACAGUCCGACGAUC … UGGAAUUCUCGGGUGCCAA
Residues (chain): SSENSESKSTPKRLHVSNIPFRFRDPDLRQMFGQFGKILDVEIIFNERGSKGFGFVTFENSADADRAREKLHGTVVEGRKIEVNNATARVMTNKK
CAGUGUUCUUCAUCAAUGUUAGUUAAUAUCCCAUUGCUUGUGUGGCGCCUUGAGUUGGUGGUAGACUAGGGCAAAUGCCCUCUUUAGUGAGAGACCAGAGGUUUUGUAUA: 3.67
GCAAGUGCCCUUAGGAUGCCGCAUGGGAAAAAUCGGUUAUCAUAAUUUCAAAGUAUAAAUAUAUUUAUUAAGUAGCGCUGCGGCUAAGAAGGAAGAGUGAGGGGUCUGUC: 5.1
GUGACCAGAGUAGACUUGGGGCAUGGCCAUUGGGGUCAUAUGUUUAUUUUUCAUUGUGUUUUGUGACCUCAGCAGGGUGGGGGUCUUCCUCCUUACUCUAAGCUAAAUCU: 1.22
GGGUUGGAAGAAAUAUAACUGUAGGACCCAGGUGAGAAAAUGUCUUUCUCUCUAGCAGGCUUGGAGGGAAGGCCUUCUGGUCUACCUGGGAUUUUACAGAGUUUUUGAGA: 0.482
CGCCCUCUCUAACUGGCCUGGCUCUGGAAGGGCUGGUGAGGACUCUGCCUCCUUGCCUGCCUACAAGGUGCCUGGUUUGCAGCAGGCUCUCCGCUCUUUCCAGCAAAGCU: 0.247
CUGCGCACGUAGGACUGAAUUCAGUGAUAUCCCUAUACACUGCCAAUUAGUGGAUAGGUUAUUGUACUUCCAUUCAUACUCUGGGCACUUGUGUUAAAUUGUUCUGUUAC: 0.303
ACUAAAACUUUGCAGUAAAAUACCUAUUUCUACAAAGCAAGGUUUGCCUGCCUCGGUUGGGGAAACCUAGUGGUUUUGUCACACUAGUCGAUGUAUGAUGUUAGUGUUGU: 0.344
CCGCCGUUGAGGGCUGAGUCCUUGCUGUGGGAUGUGCCAGUGUCCCCACCAACACCAGGAAUUUAGACCUUUUCCCUGCACCACUCUCUUCAUCCUGGGGGCUCUGUUAC: 0.453
UUUCACUUGUUCCCUCUGAGGCUGAAUGCUCCAAGAGAGUGGGAACUGUGCUUCUUACUUACUGAUAUCCAGUAACUGGCACUUACUAGGUCUUCAUGAAUGUUUCCUGA: 0.544
AAGCUAGCCUUGAAUAAUUCUUCUCUCGUCUUCCUGAAACACUAUUAUGCUUGUUGUACCUUUAAAGUAUGCCUUAUGUACAUUCCUUUCUCCUUUUCCUGCCUCCUCCC: 1.6
UGUUGAAGCUAGAGGCGGCUAGAGCAACCCUGGCUGGUAGAGGCCUGGCACACCCUAGUAGCCGGGUCUGGCCAGGCAGCGCCGCAUGGCUCUGAACAGCAACUCUGUCC: 0.329
UUUGAAAUCCAACUUGUUUUUAAAUUCCAUGUUGGUGCCAUAGAUGUAGUUUUUACAGCCUGAAAAUUAACUGCCAUGAACAUUCUUUGGUGAUGUAAGCAAGUAAAACC: 0.724

A few entries again (series 3):
CGCTTGCCTTTAATCCTCGTGCCGATCCACAAAATC: 9550 a.u.
TGCGCAACAACTTGGATTGTGGGTGTATGTCTAGAA: 4750 a.u.
CTTCTGTAAATTTGAATCGTGGGTGGACGCGCCCCG: 8190 a.u.
CTTTCCCGATCTTGCTTTGTGGGTGTAGCACATTTG: 4580 a.u.
TCTTTGAAGGTGCGTCATGCTCACTGTTGAACTCTA: 5530 a.u.
AAAGCGGTAATTTGCTCGGTGGGTGCAGATATCTAT: 3890 a.u.
TAGCTAGGGAGCCCTTGCATGACAATTCTGCTAACA: 3610 a.u.
CGCCGTCCTGTAATCCATGTGGCAAGTCCACCGTAA: 6940 a.u.
AAAGCGGTAATTTGGACGGTGGGTGCAGATATCTAT: 4050 a.u.
